Published values pooled from the literature.
Every numbered part comes from another study and shows a few of its results, in no order. Several values in a cell are separate wells, animals, samples, runs or records. Changes are numbered by the printed parent chain.
Chain of UniProt Q8NE63 (whole entry, looked up): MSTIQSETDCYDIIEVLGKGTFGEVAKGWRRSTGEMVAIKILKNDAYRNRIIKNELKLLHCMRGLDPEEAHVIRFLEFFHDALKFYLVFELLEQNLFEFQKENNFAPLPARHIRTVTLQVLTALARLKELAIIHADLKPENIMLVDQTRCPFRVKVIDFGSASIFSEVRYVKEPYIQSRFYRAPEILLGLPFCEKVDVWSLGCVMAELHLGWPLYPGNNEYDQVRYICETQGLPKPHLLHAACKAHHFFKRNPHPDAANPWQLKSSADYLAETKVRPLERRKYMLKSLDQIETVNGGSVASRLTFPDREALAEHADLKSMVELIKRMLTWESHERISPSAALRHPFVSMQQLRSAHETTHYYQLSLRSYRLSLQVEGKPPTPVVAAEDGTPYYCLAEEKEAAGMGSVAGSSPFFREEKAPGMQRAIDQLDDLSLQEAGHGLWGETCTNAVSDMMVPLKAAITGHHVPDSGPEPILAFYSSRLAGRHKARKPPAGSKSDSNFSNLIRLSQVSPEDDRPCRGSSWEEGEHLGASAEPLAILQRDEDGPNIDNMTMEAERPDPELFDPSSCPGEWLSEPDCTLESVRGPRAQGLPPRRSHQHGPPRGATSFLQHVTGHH
Chain of UniProt Q96NX5 (whole entry, looked up): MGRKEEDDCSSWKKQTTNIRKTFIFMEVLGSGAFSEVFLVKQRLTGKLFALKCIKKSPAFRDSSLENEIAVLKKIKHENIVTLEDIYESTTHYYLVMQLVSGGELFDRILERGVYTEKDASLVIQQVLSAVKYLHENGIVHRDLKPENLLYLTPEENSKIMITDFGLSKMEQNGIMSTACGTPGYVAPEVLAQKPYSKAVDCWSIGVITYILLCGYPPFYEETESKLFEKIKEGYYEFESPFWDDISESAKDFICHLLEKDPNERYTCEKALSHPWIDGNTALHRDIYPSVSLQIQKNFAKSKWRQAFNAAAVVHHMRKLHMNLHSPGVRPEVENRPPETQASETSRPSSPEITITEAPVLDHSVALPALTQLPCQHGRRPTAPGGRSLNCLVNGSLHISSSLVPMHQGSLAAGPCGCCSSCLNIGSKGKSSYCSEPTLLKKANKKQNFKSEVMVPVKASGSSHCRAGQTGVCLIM
Chain of UniProt P51955 (whole entry, looked up): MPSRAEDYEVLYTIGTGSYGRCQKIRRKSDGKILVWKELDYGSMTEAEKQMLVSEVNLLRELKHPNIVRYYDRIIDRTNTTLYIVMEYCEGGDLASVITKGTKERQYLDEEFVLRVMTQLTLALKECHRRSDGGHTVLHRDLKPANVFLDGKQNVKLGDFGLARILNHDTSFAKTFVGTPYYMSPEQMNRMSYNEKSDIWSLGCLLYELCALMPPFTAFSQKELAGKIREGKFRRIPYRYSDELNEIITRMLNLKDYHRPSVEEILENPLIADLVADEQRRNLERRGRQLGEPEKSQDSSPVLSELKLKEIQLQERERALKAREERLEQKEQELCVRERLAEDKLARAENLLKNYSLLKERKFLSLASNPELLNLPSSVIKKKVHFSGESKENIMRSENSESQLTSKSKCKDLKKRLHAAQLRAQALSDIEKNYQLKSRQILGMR
Chain of UniProt Q9BRS2 (whole entry, looked up): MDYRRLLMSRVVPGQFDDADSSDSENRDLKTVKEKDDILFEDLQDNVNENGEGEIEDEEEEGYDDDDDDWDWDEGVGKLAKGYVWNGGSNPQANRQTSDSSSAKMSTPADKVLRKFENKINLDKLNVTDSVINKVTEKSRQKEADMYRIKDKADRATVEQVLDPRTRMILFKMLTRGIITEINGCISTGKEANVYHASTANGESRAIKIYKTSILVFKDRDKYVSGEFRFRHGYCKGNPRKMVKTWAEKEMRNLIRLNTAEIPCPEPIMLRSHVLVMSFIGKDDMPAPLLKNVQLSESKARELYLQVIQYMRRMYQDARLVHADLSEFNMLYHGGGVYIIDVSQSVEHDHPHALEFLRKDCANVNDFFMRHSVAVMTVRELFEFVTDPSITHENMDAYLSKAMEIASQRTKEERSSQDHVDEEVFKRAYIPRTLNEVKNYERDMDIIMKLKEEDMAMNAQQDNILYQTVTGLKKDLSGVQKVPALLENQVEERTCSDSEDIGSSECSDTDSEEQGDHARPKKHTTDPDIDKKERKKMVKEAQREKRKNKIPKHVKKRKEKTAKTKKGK
Chain of UniProt Q9UM73 (whole entry, unmodified, looked up): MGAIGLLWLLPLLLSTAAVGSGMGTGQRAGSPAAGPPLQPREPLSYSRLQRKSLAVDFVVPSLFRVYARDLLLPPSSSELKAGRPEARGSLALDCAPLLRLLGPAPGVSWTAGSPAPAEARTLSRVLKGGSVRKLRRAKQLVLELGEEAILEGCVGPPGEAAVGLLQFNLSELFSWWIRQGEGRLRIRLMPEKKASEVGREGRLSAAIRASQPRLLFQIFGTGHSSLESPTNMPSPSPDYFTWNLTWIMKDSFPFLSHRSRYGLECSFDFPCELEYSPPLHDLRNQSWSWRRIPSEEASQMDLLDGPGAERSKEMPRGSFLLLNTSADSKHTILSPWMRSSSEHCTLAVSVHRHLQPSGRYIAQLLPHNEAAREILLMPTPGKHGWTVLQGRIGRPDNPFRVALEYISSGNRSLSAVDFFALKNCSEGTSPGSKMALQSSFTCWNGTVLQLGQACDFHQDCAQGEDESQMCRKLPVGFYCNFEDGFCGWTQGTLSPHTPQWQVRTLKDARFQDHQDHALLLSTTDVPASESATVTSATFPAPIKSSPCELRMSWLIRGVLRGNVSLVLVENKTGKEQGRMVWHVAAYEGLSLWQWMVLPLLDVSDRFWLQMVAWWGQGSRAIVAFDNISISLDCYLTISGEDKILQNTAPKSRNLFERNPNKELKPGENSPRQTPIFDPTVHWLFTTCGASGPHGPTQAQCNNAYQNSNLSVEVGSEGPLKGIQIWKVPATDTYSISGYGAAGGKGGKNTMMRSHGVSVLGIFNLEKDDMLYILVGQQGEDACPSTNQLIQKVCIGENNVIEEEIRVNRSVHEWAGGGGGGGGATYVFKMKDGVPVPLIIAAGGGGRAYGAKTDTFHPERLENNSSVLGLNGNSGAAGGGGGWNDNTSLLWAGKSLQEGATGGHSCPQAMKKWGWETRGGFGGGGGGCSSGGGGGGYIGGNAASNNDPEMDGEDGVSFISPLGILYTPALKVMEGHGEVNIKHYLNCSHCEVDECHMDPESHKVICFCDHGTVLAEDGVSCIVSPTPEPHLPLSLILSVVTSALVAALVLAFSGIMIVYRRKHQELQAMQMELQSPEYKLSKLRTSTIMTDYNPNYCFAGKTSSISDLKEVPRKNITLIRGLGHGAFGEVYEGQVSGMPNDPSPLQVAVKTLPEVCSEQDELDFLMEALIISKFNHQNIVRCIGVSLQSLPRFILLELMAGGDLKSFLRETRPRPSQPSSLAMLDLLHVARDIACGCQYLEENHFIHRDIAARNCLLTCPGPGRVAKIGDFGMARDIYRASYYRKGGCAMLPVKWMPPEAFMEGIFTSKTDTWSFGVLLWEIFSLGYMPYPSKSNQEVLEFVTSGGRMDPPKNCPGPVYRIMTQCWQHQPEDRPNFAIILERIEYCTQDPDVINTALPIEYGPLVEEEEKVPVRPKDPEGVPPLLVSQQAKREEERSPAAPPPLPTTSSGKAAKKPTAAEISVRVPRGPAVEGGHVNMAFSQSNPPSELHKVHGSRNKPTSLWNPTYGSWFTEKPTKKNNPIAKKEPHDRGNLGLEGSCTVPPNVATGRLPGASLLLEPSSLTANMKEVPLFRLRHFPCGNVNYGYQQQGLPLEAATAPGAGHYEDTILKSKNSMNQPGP
Chain of UniProt O00444 (whole entry, looked up): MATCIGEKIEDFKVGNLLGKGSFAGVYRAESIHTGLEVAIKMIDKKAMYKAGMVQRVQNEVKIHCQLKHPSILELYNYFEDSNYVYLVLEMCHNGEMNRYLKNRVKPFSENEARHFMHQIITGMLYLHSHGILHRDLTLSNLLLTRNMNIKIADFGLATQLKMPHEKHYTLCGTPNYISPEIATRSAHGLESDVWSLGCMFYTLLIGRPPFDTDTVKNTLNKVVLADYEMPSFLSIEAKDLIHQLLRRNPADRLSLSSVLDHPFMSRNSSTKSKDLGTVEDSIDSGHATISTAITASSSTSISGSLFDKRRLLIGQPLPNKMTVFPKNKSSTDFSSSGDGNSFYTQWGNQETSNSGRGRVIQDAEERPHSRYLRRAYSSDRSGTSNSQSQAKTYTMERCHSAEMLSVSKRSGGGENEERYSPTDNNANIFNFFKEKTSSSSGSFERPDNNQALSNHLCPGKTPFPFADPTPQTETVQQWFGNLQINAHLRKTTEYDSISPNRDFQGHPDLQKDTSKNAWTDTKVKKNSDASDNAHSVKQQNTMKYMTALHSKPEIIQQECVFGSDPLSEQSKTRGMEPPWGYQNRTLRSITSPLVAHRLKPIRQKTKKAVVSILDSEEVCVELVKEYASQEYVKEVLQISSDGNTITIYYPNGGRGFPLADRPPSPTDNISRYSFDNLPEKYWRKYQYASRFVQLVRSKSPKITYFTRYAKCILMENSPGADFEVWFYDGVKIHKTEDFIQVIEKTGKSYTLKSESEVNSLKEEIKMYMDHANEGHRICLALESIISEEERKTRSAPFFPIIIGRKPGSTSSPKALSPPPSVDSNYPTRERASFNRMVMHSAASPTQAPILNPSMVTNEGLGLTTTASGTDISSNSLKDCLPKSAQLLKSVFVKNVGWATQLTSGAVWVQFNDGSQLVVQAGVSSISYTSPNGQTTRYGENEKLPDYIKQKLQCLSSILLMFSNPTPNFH
Chain of UniProt Q9UIK4 (whole entry, looked up): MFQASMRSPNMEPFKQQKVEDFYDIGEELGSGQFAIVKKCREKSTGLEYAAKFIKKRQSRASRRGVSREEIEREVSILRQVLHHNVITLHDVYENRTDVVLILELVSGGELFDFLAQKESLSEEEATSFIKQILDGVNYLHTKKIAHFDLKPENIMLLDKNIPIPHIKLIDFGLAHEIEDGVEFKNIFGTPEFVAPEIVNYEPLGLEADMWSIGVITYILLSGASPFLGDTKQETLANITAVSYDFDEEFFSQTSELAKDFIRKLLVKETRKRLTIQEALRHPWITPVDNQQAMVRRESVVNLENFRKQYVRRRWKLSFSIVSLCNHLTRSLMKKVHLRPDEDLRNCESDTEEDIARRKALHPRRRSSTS

Study 1 — Structure (SMILES): c1ccc(-c2[nH]ncc2-c2ccnc3ccccc23)nc1; effect on: enzyme activity; mode: inhibitor; tested at: 0.5 µM; reference: control
target | remaining activity
Serine/threonine-protein kinase 10 (STK10, Homo sapiens, UniProt O94804) | 90.1%
Mitogen-activated protein kinase kinase kinase 3 (MAP3K3, Homo sapiens, UniProt Q99759) | 79.4%
Cyclin-dependent kinase 5, with p25 (CDK5, Homo sapiens, UniProt Q00535) | 97.2%
Serine/threonine-protein kinase Nek2 (NEK2, Homo sapiens, UniProt P51955) | 97%
Mitogen-activated protein kinase 9 (MAPK9, Homo sapiens, UniProt P45984) | 98.9%
Calcium/calmodulin-dependent protein kinase kinase 2 (CAMKK2, Homo sapiens, UniProt Q96RR4) | 97%
STE20/SPS1-related proline-alanine-rich protein kinase (STK39, Homo sapiens, UniProt Q9UEW8) | 88.7%
Calcium/calmodulin-dependent protein kinase type II subunit delta (CAMK2D, Homo sapiens, UniProt Q13557) | 101%
Protein kinase C alpha type (PRKCA, Homo sapiens, UniProt P17252) | 98.5%
Inhibitor of nuclear factor kappa-B kinase subunit epsilon (IKBKE, Homo sapiens, UniProt Q14164) | 101%
Serine/threonine-protein kinase OSR1 (OXSR1, Homo sapiens, UniProt O95747) | 85.3%
Serine/threonine-protein kinase Chk2 (CHEK2, Homo sapiens, UniProt O96017) | 96.6%
Tyrosine-protein kinase Lyn, isoform B (LYN, Homo sapiens, UniProt P07948) | 100%
Protein kinase C beta type, isoform beta-I (PRKCB, Homo sapiens, UniProt P05771) | 102%
G protein-coupled receptor kinase 3 (GRK3, Homo sapiens, UniProt P35626) | 103%
cGMP-dependent protein kinase 1, isoform beta (PRKG1, Homo sapiens, UniProt Q13976) | 86%
Death-associated protein kinase 1 (DAPK1, Homo sapiens, UniProt P53355) | 111%
Death-associated protein kinase 2 (DAPK2, Homo sapiens, UniProt Q9UIK4) | 102%
Inhibitor of nuclear factor kappa-B kinase subunit beta (IKBKB, Homo sapiens, UniProt O14920) | 105%
Cyclin-dependent kinase 4, with cyclin D1 (CDK4, Homo sapiens, UniProt P11802) | 101%
cAMP-dependent protein kinase catalytic subunit alpha (PRKACA, Homo sapiens, UniProt P17612) | 107%

Study 2 — target: CEBPB, bZIP domain (human); method: DHFR protein complementation; sample: yeast; reference: wild-type JUN-FOS pair; direction: higher = stronger binding
Setting: single substitutions, most at no-binding floor
Parent: JUN, bZIP domain (human); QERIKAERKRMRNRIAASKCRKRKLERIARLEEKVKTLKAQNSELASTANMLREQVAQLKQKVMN; partner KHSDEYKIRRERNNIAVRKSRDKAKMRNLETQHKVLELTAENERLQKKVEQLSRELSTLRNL
Substitution | binding fitness
A46Y | -1.31 natural log
K36E | -1.25 natural log
R30G | -1.18 natural log
A40T | -1.36 natural log
A29S | -1.22 natural log
L38D | -1.4 natural log
L45R | -1.44 natural log
K39M | -1.35 natural log

Study 3 — effect on: cell-free assay; method: competition with immobilised ligand; tested at: 1 µM
Compound: Cc1c(NC(=O)c2cc(C(N)=O)nc3cc(F)ccc23)c(C(F)(F)F)nn1Cc1ccc(C(C)(C)C)cc1
target | remaining binding
Serine/threonine-protein kinase tousled-like 2 (TLK2, Homo sapiens, UniProt Q86UE8) | 100%
Ribosomal protein S6 kinase alpha-6, N-terminal kinase domain (RPS6KA6, Homo sapiens, UniProt Q9UK32) | 100%
Serine/threonine-protein kinase PLK4 (PLK4, Homo sapiens, UniProt O00444) | 100%
ALK tyrosine kinase receptor (ALK, Homo sapiens, UniProt Q9UM73, L1196M) | 83%
Mast/stem cell growth factor receptor Kit, autoinhibited (KIT, Homo sapiens, UniProt P10721) | 100%
Homeodomain-interacting protein kinase 4 (HIPK4, Homo sapiens, UniProt Q8NE63) | 88%
Mitogen-activated protein kinase 1 (MAPK1, Homo sapiens, UniProt P28482) | 71%
Serine/threonine-protein kinase ULK1 (ULK1, Homo sapiens, UniProt O75385) | 98%
Dual specificity testis-specific protein kinase 1 (TESK1, Homo sapiens, UniProt Q15569) | 100%
Serine/threonine-protein kinase RIO1 (RIOK1, Homo sapiens, UniProt Q9BRS2) | 93%
Atypical kinase COQ8A, mitochondrial (COQ8A, Homo sapiens, UniProt Q8NI60) | 85%
Phosphatidylinositol 4,5-bisphosphate 3-kinase catalytic subunit alpha isoform (PIK3CA, Homo sapiens, UniProt P42336, I800L) | 100%
Calcium/calmodulin-dependent protein kinase type 1G (CAMK1G, Homo sapiens, UniProt Q96NX5) | 100%

Other studies, line by line
Compound | target or system | effect on | strain | sample | tested at | time | inhibition
c1ccc(Oc2ccc(Nc3c4c(nc5ccccc35)CCC4)cc2)cc1 | Leishmania donovani | parasite killing | DD8 | intracellular amastigotes | 8 µM | 24 h | 62% and 64% and 70%
C[C@@H]1[C@H](O)[C@@H](C)/C=C/C=C/C=C/C=C/C=C/C=C/C=C/[C@H](O[C@@H]2O[C@H](C)[C@@H](O)[C@H](N)[C@@H]2O)C[C@@H]2O[C@](O)(C[C@@H](O)C[C@@H](O)[C@H](O)CC[C@@H](O)C[C@@H](O)CC(=O)O[C@H]1C)C[C@H](O)[C@H]2C(=O)O | THP-1 | host cell growth |  |  | 20 µM |  | 103%

Excerpt of the above (study 3):
target | remaining binding
Ribosomal protein S6 kinase alpha-6, N-terminal kinase domain (RPS6KA6, Homo sapiens, UniProt Q9UK32) | 100%
Serine/threonine-protein kinase PLK4 (PLK4, Homo sapiens, UniProt O00444) | 100%
ALK tyrosine kinase receptor (ALK, Homo sapiens, UniProt Q9UM73, L1196M) | 83%
